Assay results collected from several papers.
Numbered parts are unrelated; each lists some results of a single study. Positions count from the first letter of the parent shown.

Set 1 — target: CREB3L1, bZIP domain (human); technique: DHFR protein complementation; medium: yeast; reference: wild-type JUN-FOS pair; reading: higher = stronger binding
Notes: single substitutions, most at no-binding floor
Parent: JUN, bZIP domain (human); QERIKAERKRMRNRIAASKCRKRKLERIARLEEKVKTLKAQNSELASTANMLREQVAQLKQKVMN; partner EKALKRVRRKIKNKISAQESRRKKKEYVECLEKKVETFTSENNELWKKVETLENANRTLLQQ
Variant	binding fitness [natural log]
R53C	-1.56
E32N	-1.58
E54A	-1.37
N42L	-1.5
A46C	-1.46
A49K	-1.39
Q41S	-1.48
R30E	-1.3

Set 2 — technique: RNA Bind-n-Seq; molecule type: RNA; medium: in vitro; tested at: 20 nM; notes: 6-mer, flanks averaged, single round; together with: 150 mM KCl; reference: input library; reading: higher = stronger binding
Target: TAR DNA-binding protein 43, full length, His tag (TARDBP, Homo sapiens, UniProt Q13148, residues 1-414)
Sequence	6-mer enrichment (R)
GUAUAG	0.904
GCUAGA	0.895
CUCGUG	0.777
GUGGUC	1.27
UAGUAG	0.846
AGGACC	0.85
CUAGAC	0.633
GACUGG	1.62

Set 3 — technique: RNAcompete; molecule type: RNA; medium: in vitro; tested at: 20 nM; notes: 7-mer, probes averaged, single round; reference: mean of 7-mers; reading: higher = stronger binding
Target: PABPC1L2, full length, GST fusion (mouse, UniProt A0ABA7IW68)
Residues (chain): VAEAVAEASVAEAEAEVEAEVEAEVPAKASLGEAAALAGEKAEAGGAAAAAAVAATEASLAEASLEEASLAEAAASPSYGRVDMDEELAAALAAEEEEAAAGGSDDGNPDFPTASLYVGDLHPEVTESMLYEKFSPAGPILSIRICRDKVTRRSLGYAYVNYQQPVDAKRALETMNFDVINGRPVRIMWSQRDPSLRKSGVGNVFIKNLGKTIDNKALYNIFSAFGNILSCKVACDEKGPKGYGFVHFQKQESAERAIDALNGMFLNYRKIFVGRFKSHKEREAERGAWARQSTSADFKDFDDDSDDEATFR
Sequence	7-mer Z-score
AUAUCCC	-0.255
UUCGGCC	-0.336
CACACUG	-0.213
CACCAAA	0.885
GUGAAUG	-0.137
CUGGAGG	0.124
GUUCACG	-0.271
CCAGGUG	-0.079

Mixed results
Parent: PafA, mature enzyme, eGFP fusion (Elizabethkingia meningoseptica, UniProt Q9KJX5); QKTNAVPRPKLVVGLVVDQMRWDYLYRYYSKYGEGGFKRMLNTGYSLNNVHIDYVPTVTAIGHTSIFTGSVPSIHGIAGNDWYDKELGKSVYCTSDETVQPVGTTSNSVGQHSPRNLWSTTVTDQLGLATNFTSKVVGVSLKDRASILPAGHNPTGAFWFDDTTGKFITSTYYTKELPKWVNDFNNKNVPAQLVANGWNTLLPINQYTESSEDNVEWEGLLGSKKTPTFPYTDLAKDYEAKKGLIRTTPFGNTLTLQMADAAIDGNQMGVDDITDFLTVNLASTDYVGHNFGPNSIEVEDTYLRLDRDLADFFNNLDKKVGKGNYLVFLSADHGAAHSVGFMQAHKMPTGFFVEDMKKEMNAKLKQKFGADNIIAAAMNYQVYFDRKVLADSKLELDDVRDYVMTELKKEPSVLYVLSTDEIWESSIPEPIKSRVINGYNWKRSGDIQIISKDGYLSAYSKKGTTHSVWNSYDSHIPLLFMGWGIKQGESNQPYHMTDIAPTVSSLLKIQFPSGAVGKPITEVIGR
Variant	target	test	test system	setting	how to read	endpoint	value
S474V	inorganic phosphate, free oxyanion	microfluidic competitive inhibition	in vitro, cell-free expressed	not given, derived from inhibition constants, unchanged parent 615000 nM	lower = stronger binding	phosphate dissociation constant	243 µM

Repeated from above (set 1):
Variant	binding fitness [natural log]
Q41S	-1.48
